Measurements from different studies.
A part holds a random share of what one study measured. Positions count from the first letter of the parent shown.
UniProt P33981, sequence (whole entry, looked up): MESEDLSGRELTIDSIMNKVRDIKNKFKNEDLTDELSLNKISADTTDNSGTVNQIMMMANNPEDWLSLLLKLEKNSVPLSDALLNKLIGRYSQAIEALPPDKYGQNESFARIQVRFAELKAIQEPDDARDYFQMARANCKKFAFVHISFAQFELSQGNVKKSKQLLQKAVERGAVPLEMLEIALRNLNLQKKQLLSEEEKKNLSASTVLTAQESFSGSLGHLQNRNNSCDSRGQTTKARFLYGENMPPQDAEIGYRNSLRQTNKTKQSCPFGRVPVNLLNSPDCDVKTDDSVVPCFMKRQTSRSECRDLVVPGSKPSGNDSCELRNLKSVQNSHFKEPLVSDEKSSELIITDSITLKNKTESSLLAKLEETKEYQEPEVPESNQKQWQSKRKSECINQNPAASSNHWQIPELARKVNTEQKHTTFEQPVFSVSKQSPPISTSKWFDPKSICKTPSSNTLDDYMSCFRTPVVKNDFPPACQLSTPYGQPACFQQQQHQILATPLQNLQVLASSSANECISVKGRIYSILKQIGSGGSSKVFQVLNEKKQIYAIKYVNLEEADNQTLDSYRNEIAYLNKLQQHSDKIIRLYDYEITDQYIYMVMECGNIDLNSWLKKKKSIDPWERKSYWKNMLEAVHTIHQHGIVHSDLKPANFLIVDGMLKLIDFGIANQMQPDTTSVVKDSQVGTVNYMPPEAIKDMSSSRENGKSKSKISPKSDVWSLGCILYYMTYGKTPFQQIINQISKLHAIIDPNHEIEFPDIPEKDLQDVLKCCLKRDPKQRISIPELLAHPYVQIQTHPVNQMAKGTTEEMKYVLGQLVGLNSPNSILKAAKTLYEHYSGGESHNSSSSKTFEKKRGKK
UniProt O00238, sequence (whole entry, looked up): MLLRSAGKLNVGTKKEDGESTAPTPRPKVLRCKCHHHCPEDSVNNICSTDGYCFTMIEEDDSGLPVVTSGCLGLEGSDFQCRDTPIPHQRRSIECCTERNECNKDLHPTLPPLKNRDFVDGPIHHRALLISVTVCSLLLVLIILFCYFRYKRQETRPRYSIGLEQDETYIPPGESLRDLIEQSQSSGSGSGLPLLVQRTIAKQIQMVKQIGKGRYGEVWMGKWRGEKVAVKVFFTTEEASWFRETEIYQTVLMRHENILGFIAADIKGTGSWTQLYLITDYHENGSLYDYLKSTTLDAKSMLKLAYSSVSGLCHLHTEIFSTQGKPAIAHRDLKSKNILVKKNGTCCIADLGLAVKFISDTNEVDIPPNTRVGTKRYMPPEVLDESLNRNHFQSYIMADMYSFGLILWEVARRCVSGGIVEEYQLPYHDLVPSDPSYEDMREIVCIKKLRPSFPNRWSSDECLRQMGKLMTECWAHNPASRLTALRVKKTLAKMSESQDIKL
UniProt Q9BZL6, sequence (whole entry, looked up): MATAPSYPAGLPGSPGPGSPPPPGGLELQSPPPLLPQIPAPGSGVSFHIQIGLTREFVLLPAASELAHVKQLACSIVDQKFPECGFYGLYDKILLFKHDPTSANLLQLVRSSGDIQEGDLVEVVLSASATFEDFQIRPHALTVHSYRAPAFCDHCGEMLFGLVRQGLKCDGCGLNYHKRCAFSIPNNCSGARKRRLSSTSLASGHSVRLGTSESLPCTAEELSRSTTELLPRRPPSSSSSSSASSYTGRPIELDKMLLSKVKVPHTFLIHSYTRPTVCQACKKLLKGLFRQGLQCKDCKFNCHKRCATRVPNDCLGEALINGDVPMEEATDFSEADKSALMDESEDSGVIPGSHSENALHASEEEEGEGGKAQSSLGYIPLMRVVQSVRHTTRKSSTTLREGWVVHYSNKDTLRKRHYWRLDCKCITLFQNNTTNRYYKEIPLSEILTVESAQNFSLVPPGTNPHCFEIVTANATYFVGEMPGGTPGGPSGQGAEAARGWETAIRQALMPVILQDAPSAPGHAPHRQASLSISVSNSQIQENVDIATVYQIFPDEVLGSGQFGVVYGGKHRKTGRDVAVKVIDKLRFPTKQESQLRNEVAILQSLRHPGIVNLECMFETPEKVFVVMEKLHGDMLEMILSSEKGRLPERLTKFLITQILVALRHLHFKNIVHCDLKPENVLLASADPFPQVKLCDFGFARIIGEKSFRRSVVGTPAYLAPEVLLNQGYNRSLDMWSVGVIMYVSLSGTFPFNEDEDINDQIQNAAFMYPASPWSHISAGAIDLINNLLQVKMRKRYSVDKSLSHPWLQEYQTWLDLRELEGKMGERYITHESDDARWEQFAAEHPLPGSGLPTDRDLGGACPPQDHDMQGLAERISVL
UniProt Q8N752, sequence (whole entry, looked up): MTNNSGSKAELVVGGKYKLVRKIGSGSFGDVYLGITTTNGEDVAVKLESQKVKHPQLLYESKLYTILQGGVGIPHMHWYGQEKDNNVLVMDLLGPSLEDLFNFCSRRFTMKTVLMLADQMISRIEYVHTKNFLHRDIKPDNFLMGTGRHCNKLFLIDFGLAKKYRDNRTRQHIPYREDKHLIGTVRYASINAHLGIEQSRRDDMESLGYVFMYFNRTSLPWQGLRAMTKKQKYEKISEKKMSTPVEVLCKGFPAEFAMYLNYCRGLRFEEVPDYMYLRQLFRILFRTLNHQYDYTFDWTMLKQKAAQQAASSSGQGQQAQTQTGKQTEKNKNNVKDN
UniProt P48729, sequence (whole entry, looked up): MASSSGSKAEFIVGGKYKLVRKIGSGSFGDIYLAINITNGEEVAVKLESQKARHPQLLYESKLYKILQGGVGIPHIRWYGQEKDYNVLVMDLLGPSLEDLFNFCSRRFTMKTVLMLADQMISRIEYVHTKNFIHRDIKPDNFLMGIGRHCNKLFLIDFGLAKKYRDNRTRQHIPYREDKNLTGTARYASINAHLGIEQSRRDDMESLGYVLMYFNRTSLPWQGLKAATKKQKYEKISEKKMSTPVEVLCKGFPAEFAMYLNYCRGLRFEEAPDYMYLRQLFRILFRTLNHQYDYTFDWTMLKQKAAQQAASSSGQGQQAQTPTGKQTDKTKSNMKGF
UniProt Q99640, sequence (whole entry, looked up): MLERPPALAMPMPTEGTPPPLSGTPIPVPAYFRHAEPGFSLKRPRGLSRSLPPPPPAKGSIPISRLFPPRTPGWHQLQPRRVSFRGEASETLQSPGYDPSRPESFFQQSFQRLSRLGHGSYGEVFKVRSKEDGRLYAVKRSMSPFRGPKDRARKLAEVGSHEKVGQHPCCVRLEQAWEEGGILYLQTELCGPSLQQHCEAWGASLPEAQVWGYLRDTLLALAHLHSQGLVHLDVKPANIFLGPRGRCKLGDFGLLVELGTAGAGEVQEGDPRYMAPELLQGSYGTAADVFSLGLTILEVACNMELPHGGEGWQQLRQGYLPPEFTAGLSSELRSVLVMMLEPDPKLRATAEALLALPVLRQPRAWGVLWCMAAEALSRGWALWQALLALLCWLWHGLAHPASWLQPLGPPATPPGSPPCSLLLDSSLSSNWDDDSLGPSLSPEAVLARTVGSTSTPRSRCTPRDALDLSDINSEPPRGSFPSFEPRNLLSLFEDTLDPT

Series 1 — read-out: cell-free assay; technique: competition with immobilised ligand; tested at: 0.1 µM
SMILES: C[C@@H]1CN(c2cc(-c3n[nH]c4ccc(OC5(C)CC5)cc34)ncn2)C[C@H](C)O1
target	remaining binding
RPS6KB1 (Homo sapiens, UniProt P23443)	73%
MAP3K6 (Homo sapiens, UniProt O95382)	59%
PRKG1 (Homo sapiens, UniProt Q13976)	100%
EGFR (Homo sapiens, UniProt P00533, G719C)	63%
CSNK1A1L (Homo sapiens, UniProt Q8N752)	100%
CSNK1A1 (Homo sapiens, UniProt P48729)	73%
TTK (Homo sapiens, UniProt P33981)	74%
ERN1 (Homo sapiens, UniProt O75460)	79%
MAPK3 (Homo sapiens, UniProt P27361)	87%
MAPK9 (Homo sapiens, UniProt P45984)	72%
BMPR1B (Homo sapiens, UniProt O00238)	81%
MET (Homo sapiens, UniProt P08581, M1250T)	79%
PKMYT1 (Homo sapiens, UniProt Q99640)	96%
PRKD2 (Homo sapiens, UniProt Q9BZL6)	100%
RIPK1 (Homo sapiens, UniProt Q13546)	100%
RET (Homo sapiens, UniProt P07949, M918T)	97%
FLT3 (Homo sapiens, UniProt P36888, D835V/ITD)	75%

Series 2 — target: CCNB1, cyclin fold, Cln2 fusion (human); technique: yeast growth competition, sequencing; sample: yeast; notes: weak parent motif; relative to: not given; direction: higher = stronger binding
Starting sequence: GMNC docking peptide (human); KNAKRNLSSEFAN
Substitution	normalised enrichment score
N2Q	0.15
A12D	0.264
R5K	0.341
E10P	-0.0408
F11L	-0.0357
N6W	0.286
K4F	0.0759
N6T	0.275

Series 3 — read-out: enzyme activity; mode: inhibitor; tested at: 0.5 µM; relative to: control
Target: Death-associated protein kinase 1 (DAPK1, Homo sapiens, UniProt P53355)
UniProt P53355, sequence (whole entry, looked up): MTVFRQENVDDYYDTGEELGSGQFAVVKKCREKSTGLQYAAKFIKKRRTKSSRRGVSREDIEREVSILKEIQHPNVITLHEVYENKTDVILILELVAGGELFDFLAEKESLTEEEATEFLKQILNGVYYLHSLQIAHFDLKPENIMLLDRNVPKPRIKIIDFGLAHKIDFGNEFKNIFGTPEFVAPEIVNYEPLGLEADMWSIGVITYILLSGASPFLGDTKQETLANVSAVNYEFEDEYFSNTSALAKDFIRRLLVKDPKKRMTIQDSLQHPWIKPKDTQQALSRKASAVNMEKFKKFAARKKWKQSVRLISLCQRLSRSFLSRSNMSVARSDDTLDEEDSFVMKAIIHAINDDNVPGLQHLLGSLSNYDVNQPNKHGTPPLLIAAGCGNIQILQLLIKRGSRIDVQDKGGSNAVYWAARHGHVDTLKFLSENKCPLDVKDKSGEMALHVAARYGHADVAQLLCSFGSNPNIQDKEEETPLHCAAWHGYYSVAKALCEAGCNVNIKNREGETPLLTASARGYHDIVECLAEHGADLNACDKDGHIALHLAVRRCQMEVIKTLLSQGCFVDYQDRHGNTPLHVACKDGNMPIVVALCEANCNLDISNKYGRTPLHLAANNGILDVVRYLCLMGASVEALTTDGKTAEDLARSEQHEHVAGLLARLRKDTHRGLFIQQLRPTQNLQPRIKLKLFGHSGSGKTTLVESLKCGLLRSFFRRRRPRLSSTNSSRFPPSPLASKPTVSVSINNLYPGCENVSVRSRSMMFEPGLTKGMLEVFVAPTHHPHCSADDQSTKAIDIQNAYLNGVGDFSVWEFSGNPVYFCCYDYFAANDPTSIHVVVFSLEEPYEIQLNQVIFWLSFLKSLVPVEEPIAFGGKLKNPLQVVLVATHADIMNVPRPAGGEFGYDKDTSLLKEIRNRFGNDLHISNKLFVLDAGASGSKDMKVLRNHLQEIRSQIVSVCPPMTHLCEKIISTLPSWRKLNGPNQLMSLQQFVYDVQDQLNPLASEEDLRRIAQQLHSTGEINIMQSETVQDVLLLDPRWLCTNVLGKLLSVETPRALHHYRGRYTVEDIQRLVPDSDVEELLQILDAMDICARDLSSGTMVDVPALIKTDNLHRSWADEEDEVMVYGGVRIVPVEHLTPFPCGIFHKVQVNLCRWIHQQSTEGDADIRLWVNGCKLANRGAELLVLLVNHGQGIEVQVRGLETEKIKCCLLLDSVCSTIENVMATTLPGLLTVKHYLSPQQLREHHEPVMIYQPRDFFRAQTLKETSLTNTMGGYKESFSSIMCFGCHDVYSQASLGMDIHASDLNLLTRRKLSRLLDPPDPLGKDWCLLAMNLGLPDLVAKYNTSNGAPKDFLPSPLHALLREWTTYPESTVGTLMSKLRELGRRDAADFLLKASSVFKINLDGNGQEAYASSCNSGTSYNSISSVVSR
SMILES	remaining activity
Oc1ccc(-c2nc(-c3ccncc3)c(-c3ccc(F)cc3)[nH]2)cc1	95%
Cc1nc(-c2ccccc2)c(-c2ccncc2)o1	124%
COc1cc2ncnc(Nc3ccc(Oc4ccccc4)cc3)c2cc1OC	105%
CN(C)c1ccc(C=C2C(=O)Nc3ccccc32)cc1	92.2%
O=S(=O)(c1cccc2cnccc12)N1CCCNCC1	79%
COc1ccc(OC)c2c(=S)c3ccccc3[nH]c12	106%
COc1ccc(C(=O)Nc2sc3c(c2C(N)=O)CCCC3)cc1OC	78.2%
O=c1c2ccccc2[nH]c(=S)n1CCN1CCC(=C(c2ccc(F)cc2)c2ccc(F)cc2)CC1	93.8%
CNC(=O)c1cc(Oc2ccc(NC(=O)Nc3ccc(Cl)c(C(F)(F)F)c3)cc2)ccn1	101%
Nc1[nH]nc2nc3ccccc3nc12	91.5%
Cn1c2ccccc2c2c3c(c4c5ccccc5n(CCC#N)c4c21)CNC3=O	102%
CCOC(=O)c1c(C)[nH]c(/C=C2\C(=O)Nc3ccccc32)c1C	100%
OCC(O)CCON=C1C(c2c(O)[nH]c3ccccc23)=Nc2ccccc21 (centres unmarked)	80.9%
O=C1NC(=O)C(c2cn(CCCn3ccnc3)c3ccccc23)=C1Nc1ccccc1	99.2%

Series 4 — technique: protein-binding microarray; form: double-stranded DNA, one strand shown; sample: in vitro; tested at: 250 nM; notes: 60-bp whole probe; added: salmon DNA 0.4 mg/ml; relative to: random background probes; direction: higher = stronger binding; all sequences stand within: GCCTAGCAC … GTCTTGATTCGCTTGACGCTGCTG
Target: Interferon regulatory factor 5, full length, phosphomimetic (IRF5, Homo sapiens, UniProt Q13568-2, residues 1-514, K96S/S451D/S453D/S456D/S462D)
Oligonucleotide	log fluorescence
GACGGTTACGACTTTCGGGACGTGCTA	4.85 z-score
TTAGTTTTCAGACTGGATTAGTGCTAG	1.04 z-score
TTAGGTATCGTCACTGGGTTAGTGCTA	0.858 z-score
TTAGGTTTCGGTTCCGGTGAGTGCTAG	10.3 z-score
TCATTTTTTTTTTCCCTACTGTGCTAG	1.27 z-score
GACGGACTGGGACGGGGGACGTGCTAG	0.478 z-score
GACGGTTTTCTACTGCTGACGTGCTAG	0.717 z-score
GACGGACTGGGGTTTGGGGACGTGCTA	-0.456 z-score
